Measured values pooled from the literature.
Compare with care: the assays were run in different laboratories. Values joined by “and” are separate records of one study, mostly repeats; a detail may differ. ± marks the error that the study gave.

SMILES	test	test system	setting	AUC(0-inf)
CSc1ccccc1C(=O)NCCn1cc(C(=O)NCc2cccc(C)n2)c(=O)c2cc3c(cc21)OC(F)(F)O3		Sprague-Dawley rat, male, whole blood	intravenous, 5 mg/kg of parent compound	0.131 ± 0.0121 µg·h/mL
Cc1nc(-c2cnc(NC(C)C)n(C)c2=O)ccc1Oc1ccnc(-c2cnn(C)c2)c1		Sprague-Dawley rat, male, plasma	intravenous, 1 mg/kg	29.6 µg·h/mL
O=C1c2ccncc2C(=O)c2c1[nH]c1ccccc21		Sprague-Dawley rat, male, plasma	intravenous, 5 mg/kg	3.21 ± 1.77 µM·h
CCCCN1CCN(C(C)C(=O)Nc2c(C)csc2C(=O)OC)CC1 (centres unmarked)		rat (Sprague-Dawley, male), plasma	subcutaneous, 62.3 mmol/L	5.56 µg·h/mL
OCC1=C[C@@H](O)[C@@H]2C=CO[C@@H](O[C@@H]3O[C@H](CO)[C@@H](O)[C@H](O)[C@H]3O)[C@H]12		rat, plasma	oral, 500 mg/kg Eu + 217 mg/kg Pc extract, dosed as combined Eu and Pc extracts	0.132 ± 0.0531 µg·h/mL
Cc1ccc(S(=O)(=O)n2cc3c4c2C(=O)C(NCc2ccc(Cl)cc2)=CC4=NCC3)cc1		Sprague-Dawley rat, plasma	intravenous, 5 mg/kg, individual rat	0.896 µg·h/mL and 2.37 µg·h/mL and 2.1 µg·h/mL
Cc1cccc(CNC(=O)c2cn(CCNC(=O)c3ccccc3S)c3cc4c(cc3c2=O)OC(F)(F)O4)n1		Sprague-Dawley rat, male, plasma	intravenous, 5 mg/kg of parent compound	0.145 ± 0.00958 µg·h/mL
C[C@H]1C[C@@H](N2C(=N)N[C@](C)(c3cccc(NC(=O)c4cccc(C#N)c4)c3Cl)CC2=O)CCO1		Han Wistar rat, male	oral, 1000 mg/kg, 7 days	1050 µg·h/mL
N#CC(Cc1ccc(O)cc1)c1ccc(O)cc1 (centres unmarked)	refers to: aglycone	rat, Long-Evans, female, serum	subcutaneous, 2 mg/kg single dose	2.5 ± 0.52 µM·h
COC(=O)C1=CO[C@@H](O[C@@H]2O[C@H](CO)[C@@H](O)[C@H](O)[C@H]2O)[C@@H]2C(CO)=CC[C@H]12		rat, plasma	oral, 500 mg/kg Eu + 217 mg/kg Pc extract, dosed as combined Eu and Pc extracts	0.103 ± 0.0862 µg·h/mL
CN(C)C(=O)c1cc2cnc(Nc3ccc(N4CCNCC4)cn3)nc2n1C1CCCC1	microdialysis	Sprague-Dawley rats, male, brain ECF	intraperitoneal, 100 mg/kg	1.16 µg·h/mL
CC[C@@H]([C@H](C)O)n1ncn(-c2ccc(N3CCN(c4ccc(OC[C@@H]5CO[C@@](Cn6cncn6)(c6ccc(F)cc6F)C5)cc4)CC3)cc2)c1=O		Sprague-Dawley rats, plasma	oral, 40 mg/kg, together with: zanubrutinib 16 mg/kg	59.1 ± 21.7 µg·h/mL
C1=C/COCc2cc(ccc2OCCN2CCCC2)Nc2nccc(n2)-c2cccc(c2)COC/1	LC-MS/MS	Sprague-Dawley rat, male, plasma	oral, 36 mg/kg, together with: voriconazole 30 mg/kg oral	4.21 ± 2.39 µg·h/mL
C=CC(=O)N1CCC(Oc2cc3c(Nc4ccc(Cl)c(Cl)c4F)ncnc3cc2OC)CC1		male Sprague-Dawley rats, plasma	oral, 2 mg/kg, together with: schisandrin B pretreatment 20 mg/kg daily 1 week	6.04 ± 1.58 µg·h/mL
C=CC(=O)N1CCC[C@@H](n2nc(-c3ccc(Oc4ccccc4)cc3)c3c(N)ncnc32)C1		rat (Wistar, male)	oral, 40 mg/kg	0.406 ± 0.0681 µg·h/mL
CCc1cc(C(=O)NC)c2nccc(N3CCc4c(cc(Cn5ccnc5)cc4-c4cn(C)nc4C(F)(F)F)C3=O)c2c1		Sprague Dawley rat, male, plasma	oral, 50 mg/kg once daily, 7 days, toxicokinetic satellite group	14.4 µg·h/mL
CNC(=O)c1cccc(-c2ccc(O[C@H]3O[C@H](CO)[C@@H](O)[C@H](O)[C@@H]3O)c(C)c2)c1		male Sprague-Dawley rat, plasma	intravenous, 3 mg/kg, group mean	0.518 µg·h/mL
Cc1cccc(CNC(=O)c2cn(CCNC(=O)c3ccccc3Sc3c([N+](=O)[O-])ncn3C)c3cc4c(cc3c2=O)OC(F)(F)O4)n1		Sprague-Dawley rat, male, plasma	intravenous, 20 mg/kg of parent drug	1.65 ± 0.0577 µg·h/mL
CNC(=O)c1cccc(-c2ccc([C@@H](O)[C@H]3O[C@H](CO)[C@@H](O)[C@H](O)[C@@H]3O)c(C)c2)c1		male Sprague-Dawley rat, plasma	oral, 10 mg/kg, individual animal	0.103 µg·h/mL and 0.074 µg·h/mL
O=C1C[C@@H](c2ccc(O)cc2)Oc2cc(O)cc(O)c21		Sprague-Dawley rat, plasma	intravenous bolus, 1 mg/kg	25.4 ± 2.68 µg·h/mL

A few entries again:
SMILES	test	test system	setting	AUC(0-inf)
CN(C)C(=O)c1cc2cnc(Nc3ccc(N4CCNCC4)cn3)nc2n1C1CCCC1	microdialysis	Sprague-Dawley rats, male, brain ECF	intraperitoneal, 100 mg/kg	1.16 µg·h/mL
CC[C@@H]([C@H](C)O)n1ncn(-c2ccc(N3CCN(c4ccc(OC[C@@H]5CO[C@@](Cn6cncn6)(c6ccc(F)cc6F)C5)cc4)CC3)cc2)c1=O		Sprague-Dawley rats, plasma	oral, 40 mg/kg, together with: zanubrutinib 16 mg/kg	59.1 ± 21.7 µg·h/mL
